# Measured values from different studies.
# Each line is one published result; not all experiments were run side by side.
# Organism: Escherichia coli
SMILES,assay,test system,setting,MIC
CC(C)(O/N=C(\C(=O)N[C@@H]1C(=O)N2C(C(=O)[O-])=C(C[N+]3(CCNC(=O)c4ccc(O)c(O)c4Cl)CCCC3)CS[C@H]12)c1csc(N)n1)C(=O)O,,DSM 1116,iron-depleted medium,0.1 µM
O=C(Cc1ccccc1)N[C@@H]1C(=O)N2C(C(=O)O)=C(CSc3cccc4cccnc34)CS(=O)(=O)[C@H]12,,25922,,128 µg/mL
CNC(C)C1CCC(N)C(OC2C(N)CC(N)C(OC3OCC(C)(O)C(NC)C3O)C2O)O1 (stereo not shown),broth microdilution,ATCC 25922,ambient air,0.5 µg/mL
O=[N+]([O-])c1ccc(O)c2ncccc12,,UAMS-1,,7.8 µM
CC[C@H]1OC(=O)C[C@@H](O)[C@H](C)[C@@H](O[C@@H]2O[C@H](C)[C@@H](O)[C@H](N(C)C)[C@H]2O)[C@@H](CCN2C[C@H](C)C[C@H](C)C2)C[C@@H](C)C(=O)/C=C/C(C)=C/[C@@H]1CO[C@@H]1O[C@H](C)[C@@H](O)[C@@H](OC)[C@H]1OC,,ATCC 25922,,320 µM
C=C/C=C(\C)CC[C@H]1C[C@@H](O)CC(=O)O1,broth microdilution,KCTC 2571,,128 µg/mL
CN1CCN(c2ccc(N3C[C@H](CO)OC3=O)cc2F)C=N1,broth microdilution,,compound alone,5 µM
CN(C)c1ccc(O)c2c1C[C@H]1C[C@H]3[C@H](N(C)C)C(O)=C(C(N)=O)C(=O)[C@@]3(O)C(O)=C1C2=O,broth microdilution,ATCC 25922,ambient air,0.25 µg/mL
C[C@@H](O)[C@H]1C(=O)N2C(C(=O)O)=C(S[C@@H]3CN[C@H](C(=O)N(C)C)C3)[C@H](C)[C@H]12,"broth microdilution, MH medium",K1 ATCC 700973,"16 h, 37 °C, growth inhibition over 99%",0.5 µM
CCn1cc(C(=O)O)c(=O)c2ccc(C)nc21,,ATCC 25922,,20 µM
CO/N=C(\C(=O)N[C@@H]1C(=O)N2C(C(=O)O)=C(COC(C)=O)CS[C@H]12)c1csc(N)n1,broth microdilution,,"24 h, 37 °C, clinical isolate",> 400 µM
N=C(N)c1ccc(OCc2cc(COc3ccc(C(=N)N)cc3)cc(-c3ccccc3)c2)cc1,,552100,compound alone,200 µg/mL
CO[C@@H]1[C@@H](O[C@@H]2O[C@H](C)[C@@H](O[C@H]3C[C@@](C)(O)[C@@H](OC(=O)CC(C)C)[C@H](C)O3)[C@H](N(C)C)[C@H]2O)[C@@H](CC=O)C[C@@H](C)[C@@H](O)/C=C/C=C/C[C@@H](C)OC(=O)C[C@H]1OC(C)=O,,ATCC 25922,,640 µM
N=C(N)c1ccc(OCc2ccc(COc3ccc(C(=N)N)cc3)cc2)cc1,,BW25113,compound alone,200 µg/mL
NC[C@H]1O[C@H](O[C@H]2[C@H](O)[C@@H](O[C@H]3O[C@H](CO)[C@@H](O)[C@H](N)[C@H]3O)[C@H](N)C[C@@H]2N)[C@H](N)C[C@@H]1O,broth microdilution,,18 h,4 µg/mL
CC1(C)S[C@@H]2[C@H](NC(=O)[C@H](N)c3ccccc3)C(=O)N2[C@H]1C(=O)O,,ATCC 25922,16 h,8 µg/mL
CC(C)Oc1c(NC(=O)c2ccc(NC(=O)[C@H](CC(N)=O)NC(=O)c3ccc(/N=N/c4ccc(C#N)cc4)cc3)cc2)ccc(C(=O)Nc2ccc(C(=O)O)cc2)c1O,,BW25113,"18 h, 37 °C, irradiated at 365 nm, photostationary state",0.45 µg/mL
NC[C@H]1O[C@H](O[C@H]2[C@H](O)[C@@H](O[C@H]3O[C@H](CO)[C@@H](O)[C@H](N)[C@H]3O)[C@H](N)C[C@@H]2N)[C@H](N)C[C@@H]1O,broth microdilution,ATCC 25922,5% CO2,2 µg/mL
CO[C@H]1/C=C/O[C@@]2(C)Oc3c(C)c(O)c4c(O)c(c(/C=N/N5CCN(C)CC5)c(O)c4c3C2=O)NC(=O)/C(C)=C\C=C\[C@H](C)[C@H](O)[C@@H](C)[C@@H](O)[C@@H](C)[C@H](OC(C)=O)[C@@H]1C,broth microdilution OD600,Mueller-Hinton broth,"24 h, 37 °C, with: 1 mM MgCl2",16 µM
[Cl][Fe]([Cl])[Cl],,,"24 h, 37 °C",> 1600 µM
CC[C@H](C)[C@H](N)C(=O)N[C@@H](CC(C)C)C(=O)N1CCC[C@H]1C(=O)N[C@@H](Cc1c[nH]c2ccccc12)C(=O)N[C@@H](CCCCN)C(=O)N[C@@H](Cc1c[nH]c2ccccc12)C(=O)N1CCC[C@H]1C(=O)N[C@@H](Cc1c[nH]c2ccccc12)C(=O)N[C@@H](Cc1c[nH]c2ccccc12)C(=O)N1CCC[C@H]1C(=O)N[C@@H](Cc1c[nH]c2ccccc12)C(=O)N[C@@H](CCCNC(=N)N)C(=O)N[C@@H](CCCNC(=N)N)C(=O)O,broth dilution,K12 BW25113,"18 h, 37 °C",10.4 µM
CC(C)Oc1c(NC(=O)c2ccc(N3C(=O)C[C@H](NC(=O)c4cc(F)c(/N=N/c5c(F)cccc5F)c(F)c4)C3=O)cc2)ccc(C(=O)N/N=C/c2c(Cl)cncc2Cl)c1O,,BW25113,after 1 h irradiation at 365 nm,> 6.4 µg/mL
N=C(N)c1ccccc1OCc1ccccc1COc1ccccc1C(=N)N,,BW25113,"compound alone, rifampicin checkerboard",> 200 µg/mL
O=C1CN(/N=C/c2ccc([N+](=O)[O-])o2)C(=O)N1,,ATCC 25922,,80 µM
C[C@@H]1[C@H](O)[C@@H](C)/C=C/C=C/C=C/C=C/C=C/C=C/C=C/[C@H](O[C@@H]2O[C@H](C)[C@@H](O)[C@H](N)[C@@H]2O)C[C@@H]2O[C@](O)(C[C@@H](O)C[C@@H](O)[C@H](O)CC[C@@H](O)C[C@@H](O)CC(=O)O[C@H]1C)C[C@H](O)[C@H]2C(=O)O,,"drug-resistant clinical isolate, MHB","24 h, 37 °C",128 µM
Cc1c(CN(C)C(=O)/C=C/c2cnc3c(c2)CC(NC(=O)OC(C)(C)C)C(=O)N3)oc2ccccc12 (stereo not shown),broth microdilution,AR-0543,,> 32 µg/mL
CN(C)c1cc(NC(=O)CNC(C)(C)C)c(O)c2c1C[C@H]1C[C@H]3[C@H](N(C)C)C(O)=C(C(N)=O)C(=O)[C@@]3(O)C(O)=C1C2=O,broth microdilution,,18 h,0.5 µg/mL
C/C(=N/NC(=O)c1cn(-c2ccccc2)nc1-c1ccc(C)cc1)c1c(O)cc(C)oc1=O,,DH5α,,70 µg/mL
CCn1cc(C(=O)O)c(=O)c2ccc(C)nc21,broth microdilution,,18 h,4 µg/mL
Cc1c(CN(C)C(=O)/C=C/c2cnc3c(c2)CC(CCN)C(=O)N3)oc2ccccc12.Cl (stereo not shown),broth microdilution,AR-0493,,4 µg/mL
CN[C@@H]1[C@@H](O[C@H]2O[C@H](CO)[C@@H](N)[C@H](O)[C@H]2O)OC2C[C@@H](N)[C@@H](O[C@H]3[C@H](O)[C@@H](O)[C@H](N)C[C@@H]3N)OC2[C@@H]1O (stereo partly shown),broth microdilution,ATCC 25922,ambient air,8 µg/mL
FC(F)(F)Oc1ccc(OCCn2c(CNCC34CC5CC(CC(C5)C3)C4)nc3ccccc32)cc1,,ATCC 25922,,> 128 µg/mL
N=C(N)c1ccc(OCCCCCCCCOc2ccc(C(=N)N)cc2)cc1,,BW25113,"compound alone, rifampicin checkerboard",> 25 µg/mL
CC(C)Oc1c(NC(=O)c2ccc(N3C(=O)C[C@H](NC(=O)c4ccc(NC(=O)c5ccc(C#N)cc5)cc4)C3=O)cc2)ccc(C(=O)N/N=C/c2ccnn2C)c1O,,BW25113,"18 h, 37 °C, irradiated at 365 nm, photostationary state",0.34 µg/mL
CO/N=C(\C(=O)N[C@@H]1C(=O)N2C(C(=O)O)=C(COC(C)=O)CS[C@H]12)c1csc(N)n1,,"ATCC 25922, Mueller Hinton broth",37 °C,< 0.5 µg/mL
CC1(C)S[C@@H]2[C@H](NC(=O)[C@H](N)c3ccccc3)C(=O)N2[C@H]1C(=O)O,,"ATCC BAA-196, resistant","18 h, 37 °C, dark",> 128 µM
COc1c(N2C[C@@H]3CCCN[C@@H]3C2)c(F)cc2c(=O)c(C(=O)O)cn(C3CC3)c12,broth microdilution,G92,18 h,0.125 µg/mL
CCCNC[C@@]1(O)[C@@H](C)O[C@H](O[C@H]2[C@H](C)[C@@H](O[C@H]3O[C@@H](C)C[C@@H](N(C)C)[C@@H]3O)[C@](C)(O)C[C@@H](C)CN[C@H](C)[C@@H](O)[C@](C)(O)[C@@H](CC)OC(=O)[C@@H]2C)C[C@]1(C)OC (stereo in doubt),,ATCC 25922,,5 µM
CC(C)Oc1c(NC(=O)c2ccc(NC(=O)[C@H](CC(N)=O)NC(=O)c3cc(F)c(/N=N/c4c(F)cccc4F)c(F)c3)cc2)ccc(C(=O)N/N=C/c2ccc(C(=O)O)s2)c1O,,BW25113,"18 h, 37 °C, irradiated at 365 nm, photostationary state",> 6.4 µg/mL
C[C@@H]1O[C@@H]1P(=O)(O)O,,ATCC 25922,,80 µM
N=C(N)c1ccc(OCc2ccccc2COc2ccc(C(=N)N)cc2)cc1,,552100,compound alone,> 200 µg/mL
CO[C@H]1/C=C/O[C@@]2(C)Oc3c(C)c(O)c4c(c3C2=O)C(=O)C=C(NC(=O)/C(C)=C\C=C\[C@H](C)[C@H](O)[C@@H](C)[C@@H](O)[C@@H](C)[C@H](OC(C)=O)[C@@H]1C)C4=O,,ATCC 25922,,10 µM
C[C@H]1[C@H](NC(=O)/C(=N\OC(C)(C)C(=O)O)c2csc(N)n2)C(=O)N1S(=O)(=O)O,agar dilution,16-1 ESBL,,≤ 0.03 µg/mL

# Repeated from above:
SMILES,assay,test system,setting,MIC
O=C1CN(/N=C/c2ccc([N+](=O)[O-])o2)C(=O)N1,,ATCC 25922,,80 µM
CC[C@H](C)[C@H](N)C(=O)N[C@@H](CC(C)C)C(=O)N1CCC[C@H]1C(=O)N[C@@H](Cc1c[nH]c2ccccc12)C(=O)N[C@@H](CCCCN)C(=O)N[C@@H](Cc1c[nH]c2ccccc12)C(=O)N1CCC[C@H]1C(=O)N[C@@H](Cc1c[nH]c2ccccc12)C(=O)N[C@@H](Cc1c[nH]c2ccccc12)C(=O)N1CCC[C@H]1C(=O)N[C@@H](Cc1c[nH]c2ccccc12)C(=O)N[C@@H](CCCNC(=N)N)C(=O)N[C@@H](CCCNC(=N)N)C(=O)O,broth dilution,K12 BW25113,"18 h, 37 °C",10.4 µM
C=C/C=C(\C)CC[C@H]1C[C@@H](O)CC(=O)O1,broth microdilution,KCTC 2571,,128 µg/mL
C/C(=N/NC(=O)c1cn(-c2ccccc2)nc1-c1ccc(C)cc1)c1c(O)cc(C)oc1=O,,DH5α,,70 µg/mL
